Experimental data pooled from the literature.
Lines come from different studies, so protocols differ. ± marks the error that the study gave.

`C[C@H]1CN(C2COC2)CCN1c1ccc(Nc2cc(-c3ccnc(N4CCn5c(cc6c5CC(C)(C)C6)C4=O)c3CO)cn(C)c2=O)nc1` has an IC50 of 0.0029 µM (Ramos; CD69 expression; BTK signalling).
For `O=C1Nc2ccc(Br)cc2C1n1nc(-c2c(O)c3ccccc3oc2=O)cc1-c1ccc(F)cc1` (centres unmarked), the IC50 was 5.85 µM (A-375; cell growth or viability, SRB; 72 h).
`NCCN.O=C1[O][Pt]2([O]C(=O)C13CCC3)[O]C(=O)C1(CCC1)C(=O)[O]2` has an IC50 of > 640 µM (SW480; cell viability, MTT; 96 h).
With `C=C1[C@H](CO)[C@@H](O)C[C@@H]1n1cnc2c(=O)[nH]c(N)nc21` the IC50 was 0.14 µM (HepG2.4D14; cell growth; 96 h).
With `CC(=O)c1ccc(NC(=O)CSc2nnc(-c3ccc(NC(=O)c4cccnc4)cc3)o2)cc1` the IC50 was 25.6 µM (RAW264.7; reactive oxygen species, inhibitor, fluorescence; LPS-stimulated).
For `CCOc1ccc(N(C)c2nc(N)nc3[nH]c4ccccc4c23)cc1`, the IC50 was 0.0188 ± 0.0005 µM (HeLa transfected with βIII-tubulin; cell growth, SRB).
`Nc1ccc(/C=C/C(=O)N2CCc3c(oc4c(-c5ccc(F)cc5)cc(-c5ccc(C(=O)N6CC(C(F)F)C6)nn5)cc34)C2)cn1` has an IC50 of 0.39 to 1.08 µM (MIA PaCa-2; cell growth or viability, CCK-8; 72 h).
`CCCCCCCCCCCCCC(=O)OC[C@H](COP(=O)([O-])OCC[N+](C)(C)C)OC(=O)CCCCCCCCCCCCC` gave an IC50 of > 250 µM (NIH 3T3; cell viability, MTT; concentration not given).
`CC(=O)c1ccc(NC(=O)CSc2nnc(-c3n[nH]c(=O)c4ccccc34)o2)cc1` has an IC50 of 35.4 µM (WI-38; cell growth or viability, MTT; 48 h).
`Cc1ccc(C)c(NC(=O)CSc2nnc(-c3ccc(NC(=O)c4cccnc4)cc3)n2N)c1` has an IC50 of 9.64 µM (RAW264.7; IL-6 release, inhibitor, ELISA; LPS-stimulated).
With `O=C1Nc2ccccc2C1n1nc(-c2c(O)c3ccccc3oc2=O)cc1-c1ccc(Br)cc1` (centres unmarked) the IC50 was 8.45 µM (A-375; cell growth or viability, SRB; 72 h).
For `Cn1c(=O)c(/C=C/c2ccccn2)nc2ccccc21`, the IC50 was 14.6 µM (HeLa 229; cell growth or viability, MTT; 72 h).
The IC50 of `O=C(Nc1ccc(-c2n[nH]c(=S)n2N=Cc2c[nH]c3ccccc23)cc1)c1cccnc1` is reported as 1.78 µM (RAW264.7; reactive oxygen species, inhibitor, fluorescence; LPS-stimulated).
With `CCNC(=O)Nc1ccc(S(=O)(=O)Oc2cnccc2Br)cc1` the IC50 was 2.5 µM (MOLM-13; cell growth or viability, MTT; 48 h).
With `O=C(O)c1cc(O)c2c(c1)C(=O)c1cccc(O)c1C2=O` the IC50 was 135 µM (U-937; cell growth or viability, ATP luminescence; 24 h).
For `CC(=O)O[C@@]12CO[C@@H]1C[C@H](O)[C@@]1(C)C(=O)[C@H](O)C3=C(C)[C@@H](OC(=O)[C@H](O)[C@@H](NC(=O)OC(C)(C)C)c4ccccc4)C[C@@](O)([C@@H](OC(=O)c4ccccc4)[C@H]21)C3(C)C`, the IC50 was 159 µM (MCF7 expressing CYP1B1; cell growth, MTT; TCDD induced, no inhibitor).
With `O=C(NCCCl)Nc1ccc(S(=O)(=O)Oc2cccnc2I)cc1` the IC50 was 1.5 µM (MOLM-13; cell growth or viability, MTT; 48 h).
`CC(=O)c1c(C)c2cnc(Nc3ccc(N4CCNCC4)cn3)nc2n(C2CCCC2)c1=O` has an IC50 of 0.11 µM (COLO 205; cell growth or viability; 6 days).
`NS(=O)(=O)c1ccc(NC(=O)CSc2nnc(-c3n[nH]c(=O)c4ccccc34)o2)cc1` has an IC50 of 32.9 µM (WI-38; cell growth or viability, MTT; 48 h).
`O=c1[nH]c2ccccc2nc1/C=C/c1ccccc1F` has an IC50 of > 50 µM (HeLa 229; cell growth or viability, MTT; 72 h).
`CC(=O)O[C@H]1C(=O)[C@@]2(C)[C@H]([C@H](OC(=O)c3ccccc3)[C@]3(O)C[C@H](OC(=O)[C@H](O)[C@@H](NC(=O)c4ccccc4)c4ccccc4)C(C)=C1C3(C)C)[C@]1(OC(C)=O)CO[C@@H]1C[C@@H]2O` gave an IC50 of 2.85 to 5.75 µM (C26, HepG2, MCF7; cytotoxicity, MTT; range over three cell lines).
With `Cc1ccc(NC(=O)CSc2nnc(-c3ccc(NC(=O)c4cccnc4)cc3)o2)cc1` the IC50 was 3.51 µM (RAW264.7; TNF-α release, inhibitor, ELISA; LPS-stimulated).
The IC50 of `CC(C)(O)C(O)Cc1cc(/C=C/c2cc(O)cc(O)c2)ccc1O` (centres unmarked) is reported as 0.19 µg/mL (HL-60; reactive oxygen species, inhibitor, fluorescence).

For quick reference, copied from above:
For `CC(=O)O[C@@]12CO[C@@H]1C[C@H](O)[C@@]1(C)C(=O)[C@H](O)C3=C(C)[C@@H](OC(=O)[C@H](O)[C@@H](NC(=O)OC(C)(C)C)c4ccccc4)C[C@@](O)([C@@H](OC(=O)c4ccccc4)[C@H]21)C3(C)C`, the IC50 was 159 µM (MCF7 expressing CYP1B1; cell growth, MTT; TCDD induced, no inhibitor).
With `O=C(NCCCl)Nc1ccc(S(=O)(=O)Oc2cccnc2I)cc1` the IC50 was 1.5 µM (MOLM-13; cell growth or viability, MTT; 48 h).
